Assay results pooled from the literature.
Parts stem from different laboratories: compare values within a part only. Changes are numbered by the printed parent chain.

Series 1 — technique: RNA Bind-n-Seq; molecule type: RNA; medium: in vitro; concentration: 200 nM; setting: whole 134-nt RNA, ends assumed; with: 150 mM KCl; relative to: input library; reading: higher = stronger binding; endpoint: log2 enrichment
Target: Fragile X messenger ribonucleoprotein 1, C-terminal low-complexity region (Fmr1, Mus musculus, UniProt P35922)
All sequences stand within: GGGAGUUCUACAGUCCGACGAUC … UGGAAUUCUCGGGUGUCAAGG
AAGUCCUGUGCUACACAUCGUAUGUACCGAAUCGGGAGGGUUUUUUUGGGAAAGGGAAAGUAUUAUGUUACGCCGUUCGGAUCUGCACUU: 0.438
CACAGACAACACGCACCCACACAGACACAGCGGGAAGGGGUUGGGAUGGGGACAGGGUGCACAGCAGGGCGGGGUAGGACCCCAGCCCCU: 1.28
UAACGUUAGAGGAGGAUCUGAUGGAUAUGGCAGUGGACGUGGAUUUGGGGAUGGCUAUAAUGGGUAUGGAGGAGGACCUGGAGGUGGCAA: 0.314
UCCUGUGCUACACAUCGUAUGUACCGAAUCGGGGAAAAAAAGGGGUUUGGGGUUUGGGGAAAGUAUUAUGUUACGCCGUUCGGAUCUGCA: 0.843
GUCCUGUGCUACACAUCGUAUGUACCGAAUCGGGGUUUUUUUGGGGAGGGGAAAGGGGAAAGUAUUAUGUUACGCCGUUCGGAUCUGCAC: 0.399
UGGGAGGUGGAUUUUGUUUAUUUUUUUAGCUCAUUUCCAGGGGUGGGAAUUUUUUUUUAAUAUGUGUCAUCAAUAAAGUUGUUUUUGAAA: 0.521
GUCCUGUGCUACACAUCGUAUGUACCGAAUCGGGGUUUUUUUGGGGAGGGGUUUGGGGAAAGUAUUAUGUUACGCCGUUCGGAUCUGCAC: 0.408
GCAGGAAGUAAAAACAAAUGGAAAUGCUUCGCAUAGUGGCAGGGGUGGGGGUUGCUAAGGAAAGGGUGGGAUGGGAGUGGGUAAAGAGUU: 0.675
UUCCCUGAAGAUGAGAUCCCAGAGAAGGCCUGCAGGCGCCUGCUUGAAGGGAGGCGGCAGAAGAAGACGAAGAAGCAGAAGCGUCUGCUC: 0.00274
CUGUGCUACACAUCGUAUGUACCGAAUCGUGUGUGUGUGUGUGUGUGUGUGUGUGUGUGUGUAAAGUAUUAUGUUACGCCGUUCGGAUCU: 0.749
GCAGGAAAAAAAAACAAAUGGAAAUGCUUCGGAUAGUGGCAGGGGUGGGGGUUGCUAAGGAAAGGGUGGGAUGGGAGUGGGUAAAGAGUU: 0.666
CUCAAGUCCUGUGCUACACAUCGUAUGUACCGAAUCGGGAGGGGAGGGGAGGGGAAAGUAUUAUGUUACGCCGUUCGGAUCUGCACUUCC: 1.18
GUCCUGUGCUACACAUCGUAUGUACCGAAUCGGGGUGGGGUUUGGGGUUUUUUUGGGGAAAGUAUUAUGUUACGCCGUUCGGAUCUGCAC: 0.79
UCAAGUCCUGUGCUACACAUCGUAUGUACCGAAUCGGGAAAGGGAGGGAAAGGGAAAGUAUUAUGUUACGCCGUUCGGAUCUGCACUUCC: 0.895

Series 2 — technique: RNA Bind-n-Seq; molecule type: RNA; medium: in vitro; concentration: 365 nM; relative to: no-protein control; reading: higher = stronger binding; endpoint: RBNS enrichment (R)
Target: RNA binding protein fox-1 homolog 2, RRM domain, GST-SBP tag (RBFOX2, Homo sapiens, UniProt O43251-10, residues 100-194)
Setting: natural RNA segment, single round, ends assumed
All sequences stand within: GGGAGUUCUACAGUCCGACGAUC … UGGAAUUCUCGGGUGCCAA
Residues (chain): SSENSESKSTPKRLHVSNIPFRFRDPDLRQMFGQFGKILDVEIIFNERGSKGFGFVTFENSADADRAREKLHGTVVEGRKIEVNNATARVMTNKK
UGGACUUGCUUCUGAACACGAAUUCUUCGAGAACUAGGCUCAGAUGCUCUGCUGGAGUGUUGGCCUCACCCCAGUCCCCUUGCCAGCAACAUCACUGCCCUUGGACGAGA: 0.29
AUUAAUGGUAUUGAAGUGUGUUAGUAGUCUGGCCGUGUGCCCAAACUUAUGUUUCGCAGCAAAAGUGGAAACCUGUCUGUAAAGCAAGUGUAACGAUGAUUUCCUGUAUC: 0.826
UAGGUCCUUUUUAAUCUGGGGUAUUACAGGCAGUACUUUAAAUCAGAGUCUUCCUGGCCUUUUUCCCUCCACCUUUUUGUAGUUACUCGGGGGCUUACUUGUGCAGUACU: 0.37
AGAUUAAUUUUUCCAUAAAACCAUUUUGAACCAAUGAACCAGUCAAUAAUUUUAAGGUUCUGUUUUAAAUGUAAGAAUUCCAACUUACAGUCUAUUAAAAUUCAGCCCUA: 0.692
UCAGUAUCUUUUCCAGUGUUUGCUACCUAAGAUCCCAUUGGGGUAAAAAUAUAACUCAGAUUUCACUGUUAGGAAUAGUUCUGUUUGUGAGCAACUUACUUCCUUUCAUC: 1.18
GCAGAGACCUGGGACUCUGUAUUUCUAUAGUUCUCCUGGCAGAGCCUUUGAGAAUGGGGAGAAACAGCCUGGGCUGGGGCUACAGGUCUGUCACUAUGCUCUCUUGCCUU: 0.656
AAGGUUAUUGUGGGAAACUGAGCUAAAGGAGUUAGCAUCUUUAUUUUUGUAUCAAAAAUAAAGGUUAUUUUGAAAUUAUUAGGAUUUUUACACAAUUCUGAAAUCUGUUG: 0.47
AGACUAGGUAUCAGAUUCCUUUUGCAGUGGGAGGUGUAUAUAUCGUAUUUUGGUAUAGAGUAGGACCCAAGCUUCAUGCAUCUGUAUUUGGUAUAUGUCAAUGACGUGGA: 0.713
CUAGUUCUAUCAAAUACCUUAUUUUACCUUUGCCAUACUUGCUGCACAAGCAGACACUGCUGGACUUAGAAGUUUCUAUUUGAGUUCCUUAAACUACAAAACUAAUAUGU: 0.486
AUGAUAUCCGUAUUUAAAAUGUAGUUAGUUAUAUUUAAUGACCUCAUUCCUAAGUUCCUUUUUCGUUAAUGUAGCUUUCAUUUCUGUUAUUGCUGUUUGAAUAAUAUGAU: 0.571
AAGAAGCGAAUUUCUGUGAAGAAGAAGCAAGAACAACCCUGACCCCUGUCCCCAACUCCAUUAUUUAUUUUGGAGCUGCCCCGCCUGGGUGGCAGGACCCCUGGGCCCUG: 0.174
AUUCAAAAUUUGACAUGCUGUUUGUUUAGUCACUACAGUGCCCUCAAAGGGCAGACAUUGCAGCCUUUUUAUAUUGCCUGCCAAAAUUUGAAGUAUUAGAACAAAGUGUG: 0.278

Series 3 — technique: RNA Bind-n-Seq; molecule type: RNA; medium: in vitro; concentration: 100 nM; relative to: input RNA pool; reading: higher = stronger binding; endpoint: bound/input enrichment
Target: RING finger protein unkempt homolog, zinc fingers 1-6, SBP tag (UNK, Homo sapiens, UniProt Q9C0B0, residues 30-357)
UniProt Q9C0B0, sequence (30-357, looked up): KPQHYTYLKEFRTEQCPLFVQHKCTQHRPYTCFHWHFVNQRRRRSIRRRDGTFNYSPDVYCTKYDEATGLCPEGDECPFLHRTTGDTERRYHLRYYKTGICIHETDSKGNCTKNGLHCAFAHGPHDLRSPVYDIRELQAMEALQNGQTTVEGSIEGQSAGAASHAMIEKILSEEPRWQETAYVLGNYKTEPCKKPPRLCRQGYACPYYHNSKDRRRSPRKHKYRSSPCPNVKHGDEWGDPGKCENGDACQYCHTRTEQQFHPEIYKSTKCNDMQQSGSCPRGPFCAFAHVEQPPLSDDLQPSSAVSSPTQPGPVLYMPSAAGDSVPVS
Setting: RNA with constant flanks, vertebrate orthologous sites, ends assumed
All sequences stand within: GGGAGUUCUACAGUCCGACGAUC … CAACAGAGGAUUGAGCAUCA
CUCUUUUCCAGGUUGGAUGUACUGGAAAAGUCAUAGGAAUUGAUCACAUUAAAGAGCUAGUAGAUGACUCAAUAAAUAAUGUCAGGAAGGAUGAUCCAACACUUCUGUCUUCAGGGAGAG: 0.978 ratio
GAGCUAAAGGAGUUAGCAUCUUUAUUUUUGUAUCAAAGAUAAAGGUUAUUUUGAAAUUAUUAAGAUUUUUACACAACUCUGAAAUCUGUUGCUUUUGUAAACCAAUCGUUUGAUCUUAGG: 0.519 ratio
GGUGGUGGGGCCCAGGCCCUGCCACUCAGGGGCCUGCUGGCCACCUCAGCCAGGCUGUUUUAGUUCUGUAAUUUUUUAACAGUGCCCUUACUUCCUGAACAUGAGUCUGAGAUUUGAAAA: 0.412 ratio
CUCACUUCCAGGUUGGGUCUAGUGGAAAAGUCAUAGGAAUUGACCACAUUAAAGAGCUAGUAGAUGACUCAAUAAAUAAUGUCAGAAAGGACGAUCCAAUGCUUUUGUCUUCAGGGAGAG: 0.585 ratio
CUCGGGGAUACCAUGGGGCGCUGCUGACUGCUUCGCGUCGUUUGAUUUGUGACCUUGACAUAAUAGAUAGGCUUGUGGUUUGUUCGUUUUUUUAAUUUAAAGAUAUUAAAACUUAAUUCA: 0.588 ratio
AGAAAAUUUUAAUCAAGAAUCUGAAGGUAGAAAUACAGGACCAUGGUUAUCUUCCUCACUUAGAAAUAGAUGCACACCUUUGUUCUCUAGAAGGAGGCGAGAAGGAAGAGAUGAACCAUC: 0.467 ratio
AUGUAAGUAGAAAAGAAUUUUCAUCCAUCUUCCCAUUGUGAAAUUCUCUAGCACUGUAUUUAGAUUCUGGAUUUUUAUAAUUCAUGUUUAAUGUAUUAGACAUUUUUAGCCCAUAAUUAA: 0.99 ratio
CCCUCUAAACCCCAUAUCUUCAGUUUCAUAGUGCAGAAAUAUUCUCUUUAAUCGUAUGAUUAGUGGACUUGUUUAAUCUUAGAGAAACUUUCAGAACUGUGAGCUUACAUGGAAAACAUA: 0.601 ratio
AUUCAAACCUGUGGUACCAUGGCCUCAUGUUGAAGGAGUAGAAGUGGACUUAGAGUCUAUUAGAAGAAAAAACAAGGCGAGAAAUGAACAAGAGCGCCAUGCUGGAGGAGAUAACCAGAA: 0.633 ratio
UAGUGUUUAAGCCACCAACAGUUCUAAAAUGCUAUUUAUUUGUGUCUUUAAGUUUGUACAUAGUAAUACCCACCUCUUUGUUGCUUAAUUUGGCAGGGAGGCAGUGAGUUUGAAUUUUUG: 1.76 ratio
CUAGAGAGAGGUGACAUUUUCACAUAUCCGAAUAAAGAAAUGAAAUGCUGGAAGUCCUCUCGGGACUAAGUUUAAUUGGAGAGUUUAAAGAAGCCUCUCUUAGGUAAUUCUAAAACGAAA: 0.314 ratio

Series 4 — technique: DHFR PCA, deep sequencing; medium: yeast; with: (+)-ABA 0.11 µM; relative to: wild-type fitted maximum; reading: higher = stronger binding; endpoint: relative binding score
Target: ABI1, truncated, D143A, DHFR fusion (Arabidopsis thaliana)
Setting: methotrexate growth selection, single substitutions
Starting sequence: PYL1, truncated, DHFR fusion (Arabidopsis thaliana); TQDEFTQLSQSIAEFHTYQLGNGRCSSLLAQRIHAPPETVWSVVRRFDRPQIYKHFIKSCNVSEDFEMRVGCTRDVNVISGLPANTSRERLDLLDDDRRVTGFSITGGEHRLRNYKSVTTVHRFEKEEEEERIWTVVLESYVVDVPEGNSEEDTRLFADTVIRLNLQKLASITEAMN; partner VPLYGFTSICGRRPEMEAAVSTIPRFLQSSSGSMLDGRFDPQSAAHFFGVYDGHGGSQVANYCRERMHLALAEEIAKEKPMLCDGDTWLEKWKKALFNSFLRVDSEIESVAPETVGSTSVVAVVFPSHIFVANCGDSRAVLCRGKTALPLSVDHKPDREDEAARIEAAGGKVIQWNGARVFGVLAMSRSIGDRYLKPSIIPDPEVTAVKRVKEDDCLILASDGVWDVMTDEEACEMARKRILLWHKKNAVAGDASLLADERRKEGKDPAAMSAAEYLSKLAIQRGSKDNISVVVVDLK
S104L: -5.65%
E139H: 6.32%
L138P: -1.78%
G21V: 26.6%
S9H: 27.2%
C60W: -11%
L164Y: 2.48%
Y115G: -8.65%
T86L: 21.6%
L91I: 17.7%
R132H: 38.2%
R98Y: 0.718%
E147A: 18.7%

Repeated from above (series 1):
UCCUGUGCUACACAUCGUAUGUACCGAAUCGGGGAAAAAAAGGGGUUUGGGGUUUGGGGAAAGUAUUAUGUUACGCCGUUCGGAUCUGCA: 0.843
GCAGGAAAAAAAAACAAAUGGAAAUGCUUCGGAUAGUGGCAGGGGUGGGGGUUGCUAAGGAAAGGGUGGGAUGGGAGUGGGUAAAGAGUU: 0.666
CUGUGCUACACAUCGUAUGUACCGAAUCGUGUGUGUGUGUGUGUGUGUGUGUGUGUGUGUGUAAAGUAUUAUGUUACGCCGUUCGGAUCU: 0.749
CACAGACAACACGCACCCACACAGACACAGCGGGAAGGGGUUGGGAUGGGGACAGGGUGCACAGCAGGGCGGGGUAGGACCCCAGCCCCU: 1.28
UCAAGUCCUGUGCUACACAUCGUAUGUACCGAAUCGGGAAAGGGAGGGAAAGGGAAAGUAUUAUGUUACGCCGUUCGGAUCUGCACUUCC: 0.895
UGGGAGGUGGAUUUUGUUUAUUUUUUUAGCUCAUUUCCAGGGGUGGGAAUUUUUUUUUAAUAUGUGUCAUCAAUAAAGUUGUUUUUGAAA: 0.521
GCAGGAAGUAAAAACAAAUGGAAAUGCUUCGCAUAGUGGCAGGGGUGGGGGUUGCUAAGGAAAGGGUGGGAUGGGAGUGGGUAAAGAGUU: 0.675
GUCCUGUGCUACACAUCGUAUGUACCGAAUCGGGGUGGGGUUUGGGGUUUUUUUGGGGAAAGUAUUAUGUUACGCCGUUCGGAUCUGCAC: 0.79
